Assay results of several laboratories.
Protocols differ between the studies behind these lines. “And” joins repeats or separate records; there may be more than shown. ± marks the error that the study gave.
WD repeat-containing protein 91 WD40 domain, residues 392–747: WD repeat-containing protein 91, WD40 domain, residues 392–747 (Homo sapiens, UniProt A4D1P6)
Chain of UniProt A4D1P6 (whole entry, looked up): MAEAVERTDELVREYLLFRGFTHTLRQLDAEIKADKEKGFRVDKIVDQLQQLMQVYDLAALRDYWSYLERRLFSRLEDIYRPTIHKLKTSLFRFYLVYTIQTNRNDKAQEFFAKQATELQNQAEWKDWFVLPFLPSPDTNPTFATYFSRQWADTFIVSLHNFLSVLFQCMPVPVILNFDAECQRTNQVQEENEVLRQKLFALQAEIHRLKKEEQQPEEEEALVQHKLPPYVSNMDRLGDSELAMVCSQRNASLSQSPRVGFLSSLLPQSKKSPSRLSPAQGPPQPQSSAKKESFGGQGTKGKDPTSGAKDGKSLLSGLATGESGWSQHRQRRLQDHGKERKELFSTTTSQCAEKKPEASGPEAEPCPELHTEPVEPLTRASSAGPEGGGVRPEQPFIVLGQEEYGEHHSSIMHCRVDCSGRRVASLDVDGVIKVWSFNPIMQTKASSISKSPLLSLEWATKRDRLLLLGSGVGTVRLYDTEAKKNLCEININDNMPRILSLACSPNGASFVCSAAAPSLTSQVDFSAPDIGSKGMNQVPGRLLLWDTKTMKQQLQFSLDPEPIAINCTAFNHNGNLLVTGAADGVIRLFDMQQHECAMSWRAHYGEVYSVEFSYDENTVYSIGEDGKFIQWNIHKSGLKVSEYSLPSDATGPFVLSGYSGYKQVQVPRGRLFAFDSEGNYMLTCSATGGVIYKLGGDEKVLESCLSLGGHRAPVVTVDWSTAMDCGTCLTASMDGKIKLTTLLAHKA
CALM1 Ca2+-bound N-lobe: Calmodulin-1, Ca2+-bound N-lobe (CALM1, Homo sapiens, UniProt P0DP23)
ESR1: Estrogen receptor (ESR1, Homo sapiens, UniProt P03372)
Chain of UniProt P03372 (whole entry, looked up): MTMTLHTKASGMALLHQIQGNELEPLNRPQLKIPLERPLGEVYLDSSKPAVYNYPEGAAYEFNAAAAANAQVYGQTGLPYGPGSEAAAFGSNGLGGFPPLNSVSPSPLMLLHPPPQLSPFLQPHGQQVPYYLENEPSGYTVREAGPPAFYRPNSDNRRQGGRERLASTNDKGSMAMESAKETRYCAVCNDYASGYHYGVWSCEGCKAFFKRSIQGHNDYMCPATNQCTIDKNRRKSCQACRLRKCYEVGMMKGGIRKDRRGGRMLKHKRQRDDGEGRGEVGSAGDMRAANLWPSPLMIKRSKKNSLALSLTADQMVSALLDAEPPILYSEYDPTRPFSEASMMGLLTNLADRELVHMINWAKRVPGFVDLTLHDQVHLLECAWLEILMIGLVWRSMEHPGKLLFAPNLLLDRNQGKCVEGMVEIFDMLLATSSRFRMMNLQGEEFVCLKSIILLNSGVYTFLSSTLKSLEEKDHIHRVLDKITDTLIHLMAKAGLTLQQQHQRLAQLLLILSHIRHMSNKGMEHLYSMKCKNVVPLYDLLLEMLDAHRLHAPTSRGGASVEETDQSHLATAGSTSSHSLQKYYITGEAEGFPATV
Genome polyprotein NS3 helicase domain: Genome polyprotein, NS3 helicase domain (Hepatitis C virus genotype 1b, UniProt Q9WMX2)
Glutamate receptor 2: Glutamate receptor 2 (Homo sapiens, UniProt P42262)
Chain of UniProt Q64663 (whole entry, unmodified, looked up): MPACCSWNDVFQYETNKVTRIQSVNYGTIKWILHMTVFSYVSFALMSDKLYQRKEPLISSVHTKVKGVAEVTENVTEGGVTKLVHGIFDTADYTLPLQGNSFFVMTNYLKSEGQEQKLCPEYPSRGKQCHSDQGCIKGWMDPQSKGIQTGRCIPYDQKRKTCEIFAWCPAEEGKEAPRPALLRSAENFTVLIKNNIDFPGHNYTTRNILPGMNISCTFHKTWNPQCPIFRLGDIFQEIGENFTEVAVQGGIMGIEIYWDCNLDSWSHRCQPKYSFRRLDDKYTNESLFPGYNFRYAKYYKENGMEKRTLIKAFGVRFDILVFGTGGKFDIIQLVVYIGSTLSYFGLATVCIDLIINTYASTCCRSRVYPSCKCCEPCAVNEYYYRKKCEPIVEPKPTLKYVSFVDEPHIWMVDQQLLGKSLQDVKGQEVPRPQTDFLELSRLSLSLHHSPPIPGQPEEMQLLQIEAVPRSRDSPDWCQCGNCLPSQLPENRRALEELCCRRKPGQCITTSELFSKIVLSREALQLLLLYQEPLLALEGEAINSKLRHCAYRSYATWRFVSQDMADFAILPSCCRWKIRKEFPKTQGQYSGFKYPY

`N#CC1CCN(C(=O)c2ccc(CSc3cc(Cl)ccc3Cl)cc2)CC1` has a binding of 35% and 28% (WD repeat-containing protein 91 WD40 domain, residues 392–747; SPR; 45 µM).
`CC[C@@H]1[C@H](F)C(=O)N[C@@H]1COc1nccc2cc(C(N)=O)c(OC)cc12` gave an inhibition of -5.8% (MAP2K4 (Homo sapiens, UniProt P45985); ATP-site probe binding, ActivX profiling; THP-1 cell lysate; 0.01 mM, Lys2 site).
`Nc1ncnc2c1ncn2[C@@H]1O[C@H](CO[P@](=O)(O)O[P@](=O)(O)O[P@@](=O)(O)S)[C@@H](O)[C@H]1O` gave a ΔH of -0.6 kcal/mol (GUK1 (Homo sapiens, UniProt Q16774); ITC; molar ratio 1.741).
With `CC[C@H](C)[C@H](NC(=O)[C@H](CCCCN)NC(=O)CNC(=O)[C@@H](NC(=O)[C@@H](NC(=O)[C@H](CCSC)NC(=O)[C@H](Cc1c[nH]cn1)NC(=O)CN)[C@@H](C)O)C(C)C)C(=O)N[C@@H](Cc1ccc(O)cc1)C(=O)N[C@@H](C)C(=O)N[C@@H](C)C(=O)N[C@@H](CCSC)C(=O)N[C@@H](CCSC)C(=O)N[C@H](C(=O)N[C@@H](CCSC)C(=O)N[C@@H](CCC(=O)O)C(=O)N[C@@H](Cc1ccc(O)cc1)C(=O)N[C@@H](Cc1ccc(O)cc1)C(=O)N[C@@H](CCCNC(=N)N)C(=O)N[C@@H](CCC(N)=O)C(=O)N[C@@H](CO)C(=O)N[C@@H](CCCCN)C(=O)N[C@@H](C)C(=O)N[C@@H](CCCCN)C(=O)N[C@@H](CCCCN)C(=O)N[C@@H](CC(C)C)C(=O)N[C@@H](CCC(N)=O)C(=O)N[C@@H](C)C(=O)N[C@@H](CCSC)C(=O)N[C@@H](CCCNC(=N)N)C(=O)O)[C@@H](C)CC` the ΔH was -5.41 ± 0.21 kcal/mol (CALM1 Ca2+-bound N-lobe; binding, isothermal titration calorimetry; pH 7.4, 15 °C, N-lobe, CaV2.1 IQ domain, with: Ca2+).
With `O=C(/C=C/c1ccc(O)c(O)c1)c1ccc(O)cc1O` the selectivity ratio was 2.44 (ESR1; array formation; PRL-HeLa; reference: EC50 ERβ over EC50 ERα).
For `CCCC(CCC)C(=O)O[C@H]1C[C@H]2CC[C@@H](C1)[N+]2(C)C`, the inhibition was 0% (Genome polyprotein NS3 helicase domain; DNA binding, inhibitor; hepatitis C virus; 100 µM, with: Cy5-dT15 DNA).
For `CC(C)c1ccc(C(=O)NCCOc2ccc(C(=O)N3CCC(C#N)CC3)cc2)cc1`, the SPR response was 0.8 RU and -0.5 RU (WD repeat-containing protein 91 WD40 domain, residues 392–747; binding, SPR single-concentration screen; 45 µM).
Under “binding affinity decrease”, `OC[C@H]1OC(O)[C@H](O)[C@@H](O)[C@@H]1O` (some centres unmarked) is recorded as 8 fold (Interferon regulatory factor 6 (IRF6, Homo sapiens, UniProt O14896, P104G); microscale thermophoresis; concentration not given; reference: wild type).
`Nc1c(Br)cc(Br)cc1CN[C@H]1CC[C@H](O)CC1` gave a potentiation of 80% (Glutamate receptor 2; ion current, positive allosteric modulator, SyncroPatch patch clamp; HEK293; 30 µM).
For `COc1cc(/C=C/c2cc(/C=C/c3ccc(O)c(OC)c3)n(-c3ccc(Cl)cc3Cl)n2)ccc1O`, the ΔG was -9.13 ± 0.454 kcal/mol (haemin; binding, isothermal titration calorimetry; pH 7.4, 37 °C).
The remaining activity of `COc1cc(F)ccc1-c1ncnc(Nc2cccc(C[S@](C)(=N)=O)c2)n1` is reported as 103% (PRKD1 (Homo sapiens, UniProt Q15139); kinase activity; 10 µM, with: 10 µM ATP).
`COc1ccccc1CNCCCCCCNCCCCCCCCNCCCCCCNCc1ccccc1OC.Cl.Cl.Cl.Cl` gave an inhibition of 11% (Genome polyprotein NS3 helicase domain; DNA binding, inhibitor; hepatitis C virus; 100 µM, with: Cy5-dT15 DNA).
The binding of `N#CC1CCN(C(=O)c2ccc(CNc3cccc4c3CCCC4)cc2)CC1` is reported as 30% and 55% (WD repeat-containing protein 91 WD40 domain, residues 392–747; SPR; 45 µM).
`COc1c(O)cc2oc(-c3ccccc3)cc(=O)c2c1O` has a selectivity ratio of 0.44 (ESR1; array formation; PRL-HeLa; reference: EC50 ERβ over EC50 ERα).
The cell uptake of `CCCC[C@H]1C(=O)N(C)[C@@H](CCCC)C(=O)N[C@@H](CCCCNC(=O)CN2CCN(CC(=O)O)CCN(CC(=O)O)CC2)C(=O)N[C@H](C(=O)NCC(N)=O)CSCC(=O)N[C@@H](Cc2ccc(O)cc2)C(=O)N(C)[C@@H](C)C(=O)N[C@@H](CC(N)=O)C(=O)N2CCC[C@H]2C(=O)N[C@@H](Cc2c[nH]cn2)C(=O)N[C@@H](CCC(=O)O)C(=O)N2C[C@H](O)C[C@H]2C(=O)N[C@@H](Cc2c[nH]c3ccccc23)C(=O)N[C@@H](CO)C(=O)N[C@@H](Cc2cn(CC(=O)O)c3ccccc23)C(=O)N1C` [gallium-68 labelled] is reported as 0.56% (CD274 (Homo sapiens, UniProt Q9NZQ7); U-87 MG; with: anti-PD-L1 antibody block).
The Hill coefficient of `CN(C)C(=O)C(CCN1CCC(O)(c2ccc(Cl)cc2)CC1)(c1ccccc1)c1ccccc1` is reported as 0.755 ± 0.079 (Calcium-activated potassium channel subunit alpha-1, with LRRC26 γ1 subunit (KCNMA1, Homo sapiens, UniProt Q12791); BK channel conductance, inside-out patch clamp; BKα/γ1, Vm 70 mV, nominally Ca2+-free).
`O=C(COC(=O)c1cccc(N2C(=O)C3C4c5ccccc5C(c5ccccc54)C3C2=O)c1)c1ccccc1` (centres unmarked): activity class “active” (RORC (Homo sapiens, UniProt P51449); cell-based; concentration not given).
`N#CC1CCN(C(=O)c2ccc(CNS(=O)(=O)c3ccccc3)cc2)CC1` gave a binding of -2% and -21% (WD repeat-containing protein 91 WD40 domain, residues 392–747; SPR; 45 µM).
Under “log2 fold change”, `CCN1CCC[C@H]1CNC(=O)c1c(O)c(Cl)cc(Cl)c1OC` is recorded as 0.597 (Trace amine-associated receptor 9 (TAAR9, Homo sapiens, UniProt Q96RI9); β-arrestin recruitment, TANGO luminescence, item: TAAR9; concentration not given; reference: basal luminescence).
For `O=c1nc(SCc2cc(F)cc(C(F)(F)F)c2)nc(SCc2csc3ccc(Cl)cc23)[nH]1`, the relaxed DNA was 0% (TOP2A (Homo sapiens, UniProt P11388); DNA relaxation; 15.6 µM, replicate 1).
`C=CC(=O)N1CCC(COCC(=O)N2CCN(c3nc(-c4cnc(N)nc4C(F)F)nc(N4CCOC[C@@H]4C)n3)CC2)CC1` gave a remaining binding of 89% (SRMS (Homo sapiens, UniProt Q9H3Y6); KINOMEscan; 1 µM).
For `CC[C@H](C)[C@H](NC(=O)[C@H](CCCCN)NC(=O)CNC(=O)[C@@H](NC(=O)[C@@H](NC(=O)[C@H](CCSC)NC(=O)[C@H](Cc1c[nH]cn1)NC(=O)CN)[C@@H](C)O)C(C)C)C(=O)N[C@@H](Cc1ccc(O)cc1)C(=O)N[C@@H](C)C(=O)N[C@@H](C)C(=O)N[C@@H](CCSC)C(=O)N[C@@H](CCSC)C(=O)N[C@@H](C)C(=O)N[C@@H](CCSC)C(=O)N[C@@H](CCC(=O)O)C(=O)N[C@@H](Cc1ccc(O)cc1)C(=O)N[C@@H](Cc1ccc(O)cc1)C(=O)N[C@@H](CCCNC(=N)N)C(=O)N[C@@H](CCC(N)=O)C(=O)N[C@@H](CO)C(=O)N[C@@H](CCCCN)C(=O)N[C@@H](C)C(=O)N[C@@H](CCCCN)C(=O)N[C@@H](CCCCN)C(=O)N[C@@H](CC(C)C)C(=O)N[C@@H](CCC(N)=O)C(=O)N[C@@H](C)C(=O)N[C@@H](CCSC)C(=O)N[C@@H](CCCNC(=N)N)C(=O)O`, the ΔH was -5.45 ± 0.02 kcal/mol (CALM1 Ca2+-bound N-lobe; binding, isothermal titration calorimetry; pH 7.4, 15 °C, N-lobe, CaV2.1 IQ domain, with: Ca2+).
The normalized current of `Nc1ncnc2c1ncn2[C@@H]1O[C@H](COP(=O)(O)OP(=O)(O)OP(=O)(O)O)[C@@H](O)[C@H]1O` is reported as 0.975 and 0.994 and 0.979 (P2X purinoceptor 7 (P2rx7, Rattus norvegicus, UniProt Q64663, I214A); ion current, agonist, two-electrode voltage clamp; Xenopus laevis oocytes; 900 µM; reference: highest concentration response).
`CCCCCCCCc1ccc([C@H]2CC[C@H]([N+](C)(C)CCC)CC2)cc1.[I-]` has a Ki/Km ratio of 2.2 (SPHK1 (Homo sapiens, UniProt Q9NYA1); inhibitor, radiometric flash-plate; cell lysate; with: sphingosine 10 µM).
The inhibition of `O=C(Nc1ccncc1)c1cc([N+](=O)[O-])ccc1Cl` is reported as 0% (Genome polyprotein NS3 helicase domain; DNA binding, inhibitor; hepatitis C virus; 100 µM, with: Cy5-dT15 DNA).
`NCCCCC(=O)O`: “normalised MST signal” -0.00523 (SLC6A6 (Homo sapiens, UniProt P31641, G62A); binding, microscale thermophoresis; 31.3 µM, room temperature, with: 50 nM labelled protein; higher = more binding).
With `CCCCCCCCCCCCCCCCCCOCC(COP(=O)([O-])OCC[N+](C)(C)C)OC` (centres unmarked) the inhibition was 0% (Genome polyprotein NS3 helicase domain; DNA binding, inhibitor; hepatitis C virus; 100 µM, with: Cy5-dT15 DNA).
`Cc1ccc(N2CC(C(N)=O)CC2=O)cc1` (centres unmarked): “log fold enrichment” 0.111 (SPRY domain-containing SOCS box protein 2, SPRY domain (Homo sapiens, UniProt Q99619); binding, affinity selection mass spectrometry; reference: other proteins in batch).
The inhibition of `C=C(C)[C@H]1CC=C(C(=O)O)CC1` is reported as 2% (Genome polyprotein NS3 helicase domain; DNA binding, inhibitor; hepatitis C virus; 100 µM, with: Cy5-dT15 DNA).
With `O=C1NC(=O)C(c2ccccc2)(c2ccccc2)N1` the potentiation was 93% (Glutamate receptor 2; ion current, positive allosteric modulator, SyncroPatch patch clamp; HEK293; 3 µM).
For `CCN(CC)CCOCCOC(=O)C1(c2ccccc2)CCCC1`, the inhibition was 0% (Genome polyprotein NS3 helicase domain; DNA binding, inhibitor; hepatitis C virus; 100 µM, with: Cy5-dT15 DNA).
For `N[C@@H](Cc1c[nH]cn1)C(=O)O`, the product formation was 0.09 µM (N-alpha-acetyltransferase 80 (NAA80, Homo sapiens, UniProt Q93015); substrate, DTNB; 2 mM, 30 min, 37 °C, with: acetyl-CoA 500 µM).

Repeated from above:
With `O=C(/C=C/c1ccc(O)c(O)c1)c1ccc(O)cc1O` the selectivity ratio was 2.44 (ESR1; array formation; PRL-HeLa; reference: EC50 ERβ over EC50 ERα).
For `CCCC(CCC)C(=O)O[C@H]1C[C@H]2CC[C@@H](C1)[N+]2(C)C`, the inhibition was 0% (Genome polyprotein NS3 helicase domain; DNA binding, inhibitor; hepatitis C virus; 100 µM, with: Cy5-dT15 DNA).
For `CC(C)c1ccc(C(=O)NCCOc2ccc(C(=O)N3CCC(C#N)CC3)cc2)cc1`, the SPR response was 0.8 RU and -0.5 RU (WD repeat-containing protein 91 WD40 domain, residues 392–747; binding, SPR single-concentration screen; 45 µM).
Under “binding affinity decrease”, `OC[C@H]1OC(O)[C@H](O)[C@@H](O)[C@@H]1O` (some centres unmarked) is recorded as 8 fold (Interferon regulatory factor 6 (IRF6, Homo sapiens, UniProt O14896, P104G); microscale thermophoresis; concentration not given; reference: wild type).
`Nc1c(Br)cc(Br)cc1CN[C@H]1CC[C@H](O)CC1` gave a potentiation of 80% (Glutamate receptor 2; ion current, positive allosteric modulator, SyncroPatch patch clamp; HEK293; 30 µM).
